Experimental data collected from several papers.
Numbered parts are unrelated; each lists some results of a single study. Positions count from the first letter of the parent shown.

Set 1
Target: Phosphate system positive regulatory protein PHO4, full length, GST-tagged (PHO4, Saccharomyces cerevisiae, UniProt P07270, residues 1-312)
Technique: competition protein-binding microarray
Molecule type: double-stranded DNA, one strand shown
Matrix: in vitro
Concentration: 2 µM
Notes: whole 60-bp probe, lowest competitor level
Added: Cbf1 competitor, 0.05 µM
Direction: higher = stronger binding
Residues (chain): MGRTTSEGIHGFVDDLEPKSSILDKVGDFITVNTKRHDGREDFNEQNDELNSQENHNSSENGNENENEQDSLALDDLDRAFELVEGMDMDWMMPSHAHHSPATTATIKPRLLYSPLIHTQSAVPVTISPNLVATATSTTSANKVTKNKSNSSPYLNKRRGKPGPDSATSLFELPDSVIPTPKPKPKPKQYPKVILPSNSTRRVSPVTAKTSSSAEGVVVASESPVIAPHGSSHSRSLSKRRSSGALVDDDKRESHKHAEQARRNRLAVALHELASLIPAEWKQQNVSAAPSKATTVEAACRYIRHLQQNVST
Strand	fluorescence intensity
AGAGGCCCCAGGAGCAACGTGATGGTATAACTGCCCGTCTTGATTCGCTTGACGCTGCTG	11600 a.u.
CATACCCAACCTTGGTTGGTGGGTGAAGATATTTGTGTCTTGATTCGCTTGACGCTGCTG	3430 a.u.
ATCTTTCCCCGCATTCTCGTGGGTACCAAATAAGCTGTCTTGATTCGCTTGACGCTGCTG	9450 a.u.
TGGACGTCAAGATTCTCCGTGACTCGGGCTCTTTTCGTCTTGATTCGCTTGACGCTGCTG	2220 a.u.
TTCGTCTTCTTCGTCACCGTGACGGGAGCTCTTCGGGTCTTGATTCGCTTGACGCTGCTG	3840 a.u.
GAAAGAGTGGCTTATCATGTGTAATAGGCGAATAAGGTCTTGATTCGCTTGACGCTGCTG	6680 a.u.
CCTACCATTGCATCGGGCGTGATGGTACACCAACCAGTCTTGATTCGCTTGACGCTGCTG	5180 a.u.
GGATTTATAGTACCGTGCGTGCAAACTTAGACTGAAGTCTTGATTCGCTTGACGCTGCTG	8670 a.u.
CTTCTGTAAATTTGTATCGTGGGTGGACGCGCCCCGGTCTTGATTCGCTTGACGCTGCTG	7320 a.u.
CTTGCCAGGTACCATCACGCACGGCATGTTTTCTTCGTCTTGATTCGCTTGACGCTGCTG	8540 a.u.
CTTCTGTAAATTTGTCACGACACTTGACGCGCCCCGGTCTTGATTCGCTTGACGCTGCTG	4730 a.u.
TAAGGGCCAGGATGACAGGTGATGCTGCTTGCATTTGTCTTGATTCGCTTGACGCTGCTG	4550 a.u.
CTGTCCAGCGCAGACCACGTGGCCCTTCCTGGTGCTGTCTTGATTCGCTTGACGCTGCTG	18800 a.u.
AAAGCGGTAATTTGTTAAGTGGGTGCAGATATCTATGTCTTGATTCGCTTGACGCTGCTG	4740 a.u.
GCGCTTGCATCGCTGCATGTGTTAACCGAAAAGTTTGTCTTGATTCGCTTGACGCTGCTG	7600 a.u.
AAATTGGCCACAAGCATCGTGCCGAGCAAATTAAACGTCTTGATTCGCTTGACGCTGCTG	12100 a.u.
GGTACAGCGCCCTGTCATGTTCCCCGATTGCCTGTTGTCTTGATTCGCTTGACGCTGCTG	4980 a.u.
CGTCCTAGTGATTGCACGGTGGGTGCCATGAGGAAGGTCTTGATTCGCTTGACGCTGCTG	8320 a.u.

Set 2
Target: ABI1, truncated, D143A, DHFR fusion (Arabidopsis thaliana)
Technique: DHFR PCA, deep sequencing
Matrix: yeast
Notes: methotrexate growth selection, single substitutions
Added: (+)-ABA 0.0091 µM
Relative to: wild-type fitted maximum
Direction: higher = stronger binding
Parent: PYL1, truncated, DHFR fusion (Arabidopsis thaliana); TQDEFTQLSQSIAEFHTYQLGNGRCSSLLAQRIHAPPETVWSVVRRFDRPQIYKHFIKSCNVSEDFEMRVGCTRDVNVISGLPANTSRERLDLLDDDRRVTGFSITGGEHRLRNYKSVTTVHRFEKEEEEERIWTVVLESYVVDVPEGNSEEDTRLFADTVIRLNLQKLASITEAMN; partner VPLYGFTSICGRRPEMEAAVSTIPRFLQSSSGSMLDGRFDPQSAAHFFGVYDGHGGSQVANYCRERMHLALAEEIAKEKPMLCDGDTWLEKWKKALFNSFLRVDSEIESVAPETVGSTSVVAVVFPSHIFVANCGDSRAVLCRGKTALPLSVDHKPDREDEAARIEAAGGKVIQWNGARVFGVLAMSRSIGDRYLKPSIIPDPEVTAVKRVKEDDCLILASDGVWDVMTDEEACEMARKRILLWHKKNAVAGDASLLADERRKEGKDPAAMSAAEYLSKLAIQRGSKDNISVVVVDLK
Variant	relative binding score [%]
V44L	5.96
K58H	15.1
E38V	0.346
H122P	4.61
V137C	-6.96
P83G	58.7
F124P	0.167
R32E	28.5
K126S	75
Q31N	-1.15
A170Y	-1.68
P36T	17.3
S11Q	27.5
N61W	13.6
I105E	3.03
V78I	42.8

Set 3
Target: RNA binding protein fox-1 homolog 2, RRM domain, GST-SBP tag (RBFOX2, Homo sapiens, UniProt O43251-10, residues 100-194)
Technique: RNA Bind-n-Seq
Molecule type: RNA
Matrix: in vitro
Concentration: 365 nM
Notes: natural RNA segment, single round, ends assumed
Relative to: no-protein control
Direction: higher = stronger binding
Target sequence (chain): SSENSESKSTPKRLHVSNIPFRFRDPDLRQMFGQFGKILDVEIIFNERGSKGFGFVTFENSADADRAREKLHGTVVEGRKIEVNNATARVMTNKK
Strand	RBNS enrichment (R)
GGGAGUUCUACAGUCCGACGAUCUGUAAAACUCAGAAACGCAGUUGGAAAGUCCUUAUUCAUUUAGUAAGCGAAUAUAUUAUAAUAUGUAUAGAGCGCCUUUUGUGUAAGUCACUGGUCAGAAUCCUCACUGAUGGAAUUCUCGGGUGCCAA	0.249
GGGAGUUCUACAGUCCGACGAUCCACAGUCUUAGGGGAAAUGUUUGUUAUGAUGUAAAUUUUAUUUGGUUUGUACGCAGUUCAAUUUCAAAAUUGCUAAAAUGUGUUUGAGCUUUAGACUAUAACAUUUGUUGUGGAAUUCUCGGGUGCCAA	0.483
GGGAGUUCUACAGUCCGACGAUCCGUCCAAGGCUGUGCAUUCGUCUAAUUAGCGUCGUGUAUGUUUUCCUUUUAUUUUUUCCAAUAAAAAAGCAGUGGGAUGAAAAUUGCUUUGAUAUAUAGCAGGUAACAUUUGGAAUUCUCGGGUGCCAA	0.683
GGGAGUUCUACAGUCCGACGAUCGCUGGUCCCAGGUCAGCGUGGGAGGCACCUUUGGGUUCCCAGUGCCCAGCACUUUGUAGUCUCAUCCCAGAUUACUAACCCUUCCUGAUCCUGGAGAGGCAGGGAUAGUAUGGAAUUCUCGGGUGCCAA	0.322
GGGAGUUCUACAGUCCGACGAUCGUAAAAGUAUGAUGUAAAUUUUCAGUGCAAUGUAAACAAAAUAAAAAUGGAUAAUUGCUUUUGUAAAUGUGUUUUUUUUUCCAAAAAUAAACUGCAACUGUUCAGGUUAGUGGAAUUCUCGGGUGCCAA	0.481
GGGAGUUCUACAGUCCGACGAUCAACCAGAAUUCACAAAGUCCUAUGCAACCCUAGACAGGAGGAGGUUAGAGAGUCUGUCUUGAUUUGUGGUUUCAGAGACCCUAGAGAAAUUUGUACCAGUUUGUAUUAAAUGGAAUUCUCGGGUGCCAA	1.42
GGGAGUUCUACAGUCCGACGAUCGCCCCAAACUUUGUUUACACUGCUAGGGAAGGAGGAGCUCCGGCAAGGGAAUAACUAGGCUGGUUAAAAGAGUCAGGGCUACUGGAGCCAAGGUGGGGACCUUUGAGGCUUGGAAUUCUCGGGUGCCAA	0.889
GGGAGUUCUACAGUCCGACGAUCCCAUUGUGUGAAUCUCAAAUAUCUCAAGACACGCAGCCUAAGCAUCUCCAUUAUCCCGUGCACAUAAGCCAAUCCAGUUGAAUGUGGACAUUACGUUCAAGUGGGCCUCCUGGAAUUCUCGGGUGCCAA	0.487
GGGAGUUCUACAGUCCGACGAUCAGACAGGAAAGGGUGCUGUGCUAGUAGUGAGAGUGACACAGAUUGCCUCAUGAUUGUCUGGAGUGUAUCAUGAAACAAAAGUCCACCAUGGAUUGCAAGCUUUAGAACGAUGGAAUUCUCGGGUGCCAA	1.44
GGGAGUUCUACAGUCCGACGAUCGCCUUUCCUGCAGGAAGAGCCUCCCAAGGGAUGGCCAAAGAAGAGCAGGAUAGGCAAAGCUGUGGAAUGUACAUUUCCUGGAUGUCAGGGGUGACCAAAACAGUACAUCAUGGAAUUCUCGGGUGCCAA	0.25
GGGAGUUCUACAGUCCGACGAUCCUGUGGCUGCAAGGCGGUCAGUUGCUGCUUGUCCCAGCAGGUGGCCUUGAUCUCUCCAUGCCCCACCUUAAGUGGUAAGCAUGUUUAAUUAUCAAAGGCCCCAUUUGUCAUGGAAUUCUCGGGUGCCAA	0.393
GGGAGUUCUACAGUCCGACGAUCCAGGUGCUGCCCUUGCUGCUGCUGGUCGGGCACCCAAGUGCGUGAGGGGCUUCAGCCUGUCCCGGGGUUGCCUGAGGCAGAGCAAGACGGGUUCUCACCCCUGACUUCUGUGGAAUUCUCGGGUGCCAA	0.255

Set 4
Target: NFE2, bZIP domain (human)
Technique: DHFR protein complementation
Matrix: yeast
Notes: single substitutions, most at no-binding floor
Relative to: wild-type JUN-FOS pair
Direction: higher = stronger binding
Parent: JUN, bZIP domain (human); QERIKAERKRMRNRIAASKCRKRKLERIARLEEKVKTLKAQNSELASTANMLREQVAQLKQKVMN; partner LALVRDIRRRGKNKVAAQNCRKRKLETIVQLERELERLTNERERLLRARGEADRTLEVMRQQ
Variant	binding fitness [natural log]
N42F	-1.49
A57P	-1.48
V35L	-1.57
E44L	-1.41
K39H	-1.45
V56Y	-1.51
A29D	-1.39
K34Q	-1.42
L45S	-1.51
A29L	-1.43
Q41A	-1.4
Q58S	-1.3
A40V	-1.54
Q55Y	-1.52

Set 5
Target: Protein max, full length (MAX, Homo sapiens, UniProt P61244-2, residues 1-151)
Technique: protein-binding microarray
Molecule type: double-stranded DNA, one strand shown
Matrix: in vitro
Concentration: not given
Notes: k-mer, scored over probes, only values ≥0.25
Direction: higher = stronger binding
Strand	E-score
ACGCCATG	0.383
AGATGCAC	0.287
AAGACACG	0.344
CATGGTAC	0.373
GCATGTAC	0.351
ATGTGCTC	0.417
ATGAGCAT	0.287
ATGTGGAC	0.312
CGCATGGC	0.444
ACGAGGAT	0.26
ACGCGTTG	0.275
GTGTGGGA	0.311
ACGTGGAA	0.43
AGCACATG	0.485
AGCGTGGC	0.437
CCTACACG	0.321
ACGCGGTA	0.319
GCACCTGC	0.349
